Results gathered from unrelated publications.
± marks the error that the study gave.

Substance | test | test system | setting | scale | endpoint | value
Cn1cc(C2=C(c3coc4ccc(F)cc34)C(=O)NC2=O)c2cc3c(cc21)OCO3 |  | male nude mice A498 xenograft | intraperitoneal, 20 mg/kg thrice weekly, 4 weeks |  | tumour weight | 327 ± 171 mg
Cc1ccc([C@]2(O)OCC(C)(C)N[C@H]2C)cc1 | nicotine antinociception blockade, antagonist, tail-flick test | mouse | 15 min pretreatment, with: nicotine 2.5 mg/kg subcutaneous |  | AD50 | 4 µg/kg
O=c1cc(-c2ccc(O)cc2)oc2cc(O[C@@H]3O[C@H](CO)[C@@H](O)[C@H](O)[C@H]3O)cc(O)c12 | ABTS scavenging, absorbance |  | 15 min |  | IC50 | 55.3 µM
CC(C)C[C@H](NC(=O)[C@H](Cc1ccc(O)cc1)NC(=O)CNC(=O)[C@H](CC(C)C)NC(=O)[C@@H]1CCCN1C(=O)CCCc1cn(CC(=O)NC(COCc2cn(CCO[C@H]3O[C@H](CO)[C@@H](O)[C@H](O)[C@@H]3O)nn2)(COCc2cn(CCO[C@H]3O[C@H](CO)[C@@H](O)[C@H](O)[C@@H]3O)nn2)COCc2cn(CCO[C@H]3O[C@H](CO)[C@@H](O)[C@H](O)[C@@H]3O)nn2)nn1)C(=O)NCC(=O)NCCCC[C@H](NC(=O)[C@H](CCCCN)NC(=O)[C@H](CC(=O)O)NC(=O)[C@@H]1CCCN1C(=O)[C@H](CCCNC(=N)N)NC(=O)[C@H](Cc1c[nH]cn1)NC(=O)[C@H](Cc1c[nH]c2ccccc12)NC(=O)[C@H](CO)NC(=O)[C@H](C)NC(=O)CNC(=O)[C@@H](N)CC(C)C)C(=O)N[C@@H](CC(C)C)C(=O)N[C@H](C(=O)N[C@@H](Cc1ccccc1)C(=O)N[C@@H](Cc1ccccc1)C(=O)N[C@@H](C)C(=O)N[C@@H](CCC(=O)O)C(=O)N[C@@H](CS)C(=O)NCC(=O)O)C(C)C | flow cytometry, measured: CD206 of F4/80+ CD11b+ | mouse tumour, tumour | 100 µL, 500 µM, 10 days |  | M2-like macrophages | 17.3%
C=C(C)[C@H]1Cc2c(ccc3c2O[C@@H]2COc4cc(OC)c(OC)cc4[C@@H]2C3=O)O1 | complex I-driven respiration | cortical mitochondria, Fischer 344 rat | 10 pM, 16 min | baseline: before exposure | reduction of oxygen consumption | 75%
N=C(N)NC(=O)c1nc(Cl)c(N2CCCCCC2)nc1N |  | Sprague-Dawley rat, urine | iv, 1.5 mg/kg, 6 h, with: acetazolamide 25 mg/kg | baseline: acetazolamide alone | sodium excretion | no effect
CC1(C)CC(O)CC(C)(C)N1[O] | measured: luminol signal | C57BL/6 mice, carrageenan footpad inflammation | iv, 5 mg/kg, 15 min before luminol |  | ROS chemiluminescence | decreased
neuropeptide Y |  | rat, plasma | intratesticular, 10 µg/kg, with: hCG |  | cumulative testosterone release | 8.5 ± 1.7 ng/mL
C/C=C(/C)C(=O)O[C@H]1C(C)=C[C@]23C(=O)[C@@H](C=C(CO)[C@@H](O)[C@]12O)[C@H]1[C@@H](C[C@H]3C)C1(C)C |  | mouse, B16 melanoma | topical, 0.1% gel, two consecutive days |  | median survival time | 16 days
COC(=O)[C@@H]1C=C(OC(=O)c2ccccc2)C(=O)[C@H]2[C@@]1(C)CC[C@H]1C(=O)O[C@H](c3ccoc3)C[C@]21C | agonist | C57BL/6 mice male | dose not given, with: naloxone pretreatment |  | antinociception | inhibited
CC(=O)N1CC[C@@H](NC(=O)[C@@H](N)Cc2c(C)cc(O)cc2C)c2cc(Cc3cccc4ccccc34)ccc21 | warm water tail withdrawal | C57BL/6 mice | intraperitoneal, up to 10 mg/kg cumulative |  | antinociception | inactive
CCC[C@@H]1NC(C)(C)CO[C@@]1(O)c1cccc(Cl)c1 | nicotine antinociception blockade, antagonist, tail-flick test | mouse | 15 min pretreatment, with: nicotine 2.5 mg/kg subcutaneous |  | AD50 | 4 µg/kg
CCS(=O)(=O)Nc1ccc(Oc2ccc(F)cc2F)c(-c2cn(C)c(=O)c3[nH]ccc23)c1 |  | mouse, MP41 metastatic uveal melanoma xenograft | oral, 2 mg/kg 5 times weekly |  | median survival | 121 days
Fc1ccc(C(OCCN2CCN(CCCc3ccccc3)CC2)c2ccc(F)cc2)cc1 | cocaine-appropriate responding, drug discrimination | male rats trained on cocaine | intraperitoneal, LMS, with: cocaine 10 mg/kg training dose |  | dose for full substitution | 10 to 18 mg/kg
COc1cccc(O)c1-c1cc(=O)c2c(O)c(OC)c(OC)c(OC)c2o1 |  | C57BL/6 mouse, aristolochic acid I renal fibrosis | oral gavage, 30 or 60 mg/kg, day 14, with: aristolochic acid I 10 mg/kg i.p. single | baseline: aristolochic acid I group | blood creatinine | decreased
